Results gathered from unrelated publications.
Protocols differ between the studies behind these lines. ± marks the error that the study gave.

`CCCCn1cc(C(=O)O)c(=O)c2cc(F)c(Nc3cccc(Cl)c3)c(N)c21` gave an IC50 of 3.71 ± 0.27 µg/mL (SW-620; cell growth, SRB; 72 h).
`COc1c(OC(=O)N(C)c2cccc(Br)c2)cc2oc3cc4c(c(O)c3c(=O)c2c1CC=C(C)C)C=CC(C)(C)O4` gave an inhibition of 3.1% (PC-12; cell proliferation, MTT; 10 µM, 24 h).
The inhibition of `COc1ccc(Nc2c3c(nc4ccccc24)CCCC3)nc1` is reported as 11.6 ± 0.28% (HepG2; MTT; 50 µM, 24 h, 10% FBS).
For `Cc1ccc(/C=C/C(=O)O)cc1-c1cc2c(cc1C)C(C)(C)CCC2(C)C`, “lowest effective concentration” read 21.3 µg/mL (TK6; cytotoxicity, GreenScreen; with: rat liver S9).
The viability of `CCN(CC)CC#CCOC(=O)[C@]1(C)CCC[C@@]2(C)[C@H]1CC(C=O)=C1C=C(C(C)C)CC[C@@H]12` is reported as < 50% (BHK-21-hACE2; 20.0 µM, 48 (unit not given)).
The IC50 of `CCCCn1cc(C(=O)O)c(=O)c2cc(F)c3c(nnn3-c3ccccc3Cl)c21` is reported as 53.1 ± 4.23 µg/mL (HCT-116; cell growth, SRB; 72 h).
`CC(=O)N[C@@H](CC[S+](C)[Ru-4]123([S+](C)CC[C@H](NC(C)=O)C(=O)O)[n+]4ccc5ccccc5c4Nc4cccc([n+]41)-c1cccc([n+]12)Nc1c2ccccc2cc[n+]13)C(=O)[O-].F[P-](F)(F)(F)(F)F` (stereo partly drawn) has a phototoxicity index of ≤ 22 (A-431 and A549; 520 nm light, 75 J/cm2; baseline: dark over light EC50).
The lytic concentration of `C/C(=N\NC(=N)N)c1nnn(-c2ccc(S(=O)(=O)NCC(C)C)cc2)c1C` is reported as > 10 mg/mL (erythrocytes; 30% hemolysis).
`CC(=O)N[C@@H](CC(=O)O)C(=O)N[C@@H](CCC(=O)O)C(=O)N[C@H](C(=O)N[C@@H](CC(=O)O)C(=O)NCC(=O)NCC(=O)NCC(=O)NCCNC(=O)OCC1c2ccccc2-c2ccccc21)C(C)C` has a metabolized fraction of 48.7% (HepG2; 200 µM, 2 h, 37 °C).
For `CCCCn1cc(C(=O)O)c(=O)c2cc(F)c(Nc3ccccc3Cl)c([N+](=O)[O-])c21`, the IC50 was 272 µM (SW-620; cell growth or viability, SRB).
`C[C@@H](NC(=O)[C@H](Cc1ccccc1)NC(=O)[C@@H](CCCNC(=N)N)NC(=O)[C@H](CCCN)NC(=O)[C@@H]1CNC(=O)c2cc3cc(c2)C(=O)N[C@H](Cc2ccc4ccccc4c2)C(=O)N[C@@H](CO)C(=O)N[C@@H](CC(N)=O)C(=O)N[C@H](Cc2ccc4ccccc4c2)C(=O)N[C@@H](c2ccccc2)C(=O)N[C@@H](CCCCNC3=O)C(=O)N[C@H](Cc2ccccc2)C(=O)N[C@@H](CCC(N)=O)C(=O)N[C@H](CCCNC(=N)N)C(=O)N[C@@H](CCCNC(=N)N)C(=O)N1)C(N)=O` — result for “concentration causing LDH release”: ≥ 20 µM (H358; 45 min, range tested 0 to 20 µM).
`CC(=O)Oc1ccc(Cn2cc(C)c(=O)[nH]c2=O)cc1C1OC(c2cccc(Cl)c2)=NN1C(C)=O` (stereo not drawn) — result for “minimum cytotoxic concentration”: 100 µM (HEL fibroblasts; cell morphology, microscopy).
`CCc1ccc([C@H](C)CC(=O)NC(=O)N[C@@H]2O[C@H](COC(C)=O)[C@@H](OC(C)=O)[C@H](OC(C)=O)[C@H]2OC(C)=O)cc1` — result for “minimal cytotoxic concentration”: > 100 µM (HEL fibroblasts; cell morphology; 3 days).
For `CCNCC1=C(O)C(=O)c2ccccc2C1=O`, “median lethal concentration” read ≥ 4320 µM (BGM (monkey kidney); MTT; 10% FCS; 24 h).
Under cytotoxicity, `NC(=O)c1ccc(C(=O)NOCc2ccc(Sc3cccc(Cl)c3)c(C(F)(F)F)c2)cc1` is recorded as “not toxic” (L3.6pl cells (human); CCK-8; 100 µM).
Under cytotoxicity, `CC(C)C[C@H](NC(=O)[C@H](CCC(N)=O)NC(=O)[C@@H]1CSSC[C@@H]2NC(=O)[C@H](CC(N)=O)NC(=O)[C@@H](N)CSSC[C@H](NC(=O)[C@H](Cc3ccccc3)NC(=O)[C@H](C)NC(=O)[C@H]([C@@H](C)O)NC(=O)[C@H](CCC(=O)O)NC(=O)[C@@H]3CCCN3C(=O)[C@H](C)NC(=O)[C@H](CCCCN)NC2=O)C(=O)N[C@@H](C)C(=O)N[C@@H](Cc2ccc(O)cc2)C(=O)N[C@@H](Cc2c[nH]c3ccccc23)C(=O)N1)C(N)=O` is recorded as “not toxic” (HCT-116 p53+/+; up to 400 µM).
`O=P(O)(O)Oc1c2c(c(OP(=O)(O)O)c3c1C1CC3c3cc4ccccc4cc31)C1CC2c2cc3ccccc3cc21`: “highest non-toxic concentration” ≤ 250 µM (TZM-bl; CellTiter-Glo; 2 days).
`CC(=O)Oc1ccc(Cn2ccc(=O)[nH]c2=O)cc1C1OC(c2ccc(Cl)cc2)=NN1C(C)=O` (stereo not drawn) — result for “minimum cytotoxic concentration”: 100 µM (HEL fibroblasts; cell morphology alteration).
Under “minimal cytotoxic concentration”, `O=C(/C=C/c1ccc(-c2ccccc2)cc1)N[C@@H]1O[C@H](CO)[C@@H](O)[C@H](O)[C@H]1O` is recorded as > 100 µM (HEL fibroblasts; cell morphology; 3 days).
`COc1c(OC(=O)N(C)c2ccccc2Br)cc2oc3cc4c(c(O)c3c(=O)c2c1CC=C(C)C)C=CC(C)(C)O4` has an inhibition of 0% (PC-12; cell proliferation, MTT; 10 µM, 24 h).
Under “minimal cytotoxic concentration”, `CC(=O)OC[C@H]1O[C@@H](NC(=O)NC(=O)/C=C/c2ccc(-c3ccccc3)cc2)[C@H](OC(C)=O)[C@@H](OC(C)=O)[C@@H]1OC(C)=O` is recorded as > 100 µM (HEL fibroblasts; cell morphology; 3 days).
Under “highest non-cytotoxic concentration”, `COC1OC2COC(c3ccccc3)OC2C(NC(=S)SCc2ccccc2)C1O` (stereo not drawn) is recorded as > 200 µg/mL (CHO; resazurin; 48 h, 10% FBS).
Under “minimal cytotoxic concentration”, `CCc1ccc([C@H](C)CC(=O)N[C@@H]2O[C@H](CO)[C@@H](O)[C@H](O)[C@H]2O)cc1` is recorded as > 100 µM (HEL fibroblasts; cell morphology; 3 days).
For `CC(=O)Oc1ccc(Cn2ccc(=O)[nH]c2=O)cc1C1OC(c2cccc(Cl)c2)=NN1C(C)=O` (stereo not drawn), “minimum cytotoxic concentration” read 100 µM (HEL fibroblasts; cell morphology, microscopy).
`CC=C(C)C(=O)OC1C(O)C2OC(COC(=O)CCCCCCCCCC(CCCCC)OC3OC(C)C(OC(C)=O)C(O)C3O2)C1OC(=O)C=Cc1ccccc1` (stereo not drawn) gave an IC50 of 0.0111 µM (U-937; cytotoxicity).
For `N=C(N)NCCC[C@@H]1NC(=O)[C@H](Cc2csc3ccccc23)NC(=O)[C@@H](Cc2ccccc2)NC(=O)[C@H](Cc2ccccc2)NC(=O)[C@H](CCC(=O)NCCOCCOCC(=O)N[C@@H](CCCCNC(=O)c2ccc3c(c2)C(=O)OC32c3ccc4cc(O)ccc4c3Oc3c2ccc2cc(O)ccc32)C(N)=O)NC(=O)[C@@H](CCCNC(=N)N)NC(=O)[C@H](CCCNC(=N)N)NC(=O)[C@@H](CCCNC(=N)N)NC1=O`, “endosomal escape efficiency” read 164 ± 24% (HeLa; 1.0 µM, 1% FBS; baseline: CPP12).
For `c1ccc(Nc2c3c(nc4ccccc24)CCCC3)cc1`, the inhibition was 5 ± 0.3% (HepG2; MTT; 50 µM, 24 h, 10% FBS).
`Cc1cc2c(c(=O)o1)C=C1CCC(C(C)CNCc3ccc(O)cc3)CC1O2` (stereo not drawn) gave a TD50 of 49.5 µM (MC65; low serum).
Under cytotoxicity, `CCCCCn1c(SC(C(=O)NCc2ccccc2)C(=O)NCc2ccccc2)nc2cc(C(=O)Nc3cccc(C(F)(F)F)c3)ccc2c1=O` is recorded as “not toxic” (PC-12; MTS; 10 µM, 48 h).
The inhibition of `Fc1ccc(Nc2c3c(nc4ccccc24)CCCC3)cc1` is reported as -1.23 ± 0.16% (HepG2; MTT; 50 µM, 24 h, 10% FBS).

Repeated from above:
`CCCCn1cc(C(=O)O)c(=O)c2cc(F)c(Nc3cccc(Cl)c3)c(N)c21` gave an IC50 of 3.71 ± 0.27 µg/mL (SW-620; cell growth, SRB; 72 h).
`CC(=O)Oc1ccc(Cn2cc(C)c(=O)[nH]c2=O)cc1C1OC(c2cccc(Cl)c2)=NN1C(C)=O` (stereo not drawn) — result for “minimum cytotoxic concentration”: 100 µM (HEL fibroblasts; cell morphology, microscopy).
`C[C@@H](NC(=O)[C@H](Cc1ccccc1)NC(=O)[C@@H](CCCNC(=N)N)NC(=O)[C@H](CCCN)NC(=O)[C@@H]1CNC(=O)c2cc3cc(c2)C(=O)N[C@H](Cc2ccc4ccccc4c2)C(=O)N[C@@H](CO)C(=O)N[C@@H](CC(N)=O)C(=O)N[C@H](Cc2ccc4ccccc4c2)C(=O)N[C@@H](c2ccccc2)C(=O)N[C@@H](CCCCNC3=O)C(=O)N[C@H](Cc2ccccc2)C(=O)N[C@@H](CCC(N)=O)C(=O)N[C@H](CCCNC(=N)N)C(=O)N[C@@H](CCCNC(=N)N)C(=O)N1)C(N)=O` — result for “concentration causing LDH release”: ≥ 20 µM (H358; 45 min, range tested 0 to 20 µM).
